Experimental data collected from several papers.
Protocols differ between the studies behind these lines. Values joined by “and” are separate records of one study, mostly repeats; a detail may differ. ± marks the error that the study gave.
lasR: Transcriptional activator protein LasR (lasR, Pseudomonas aeruginosa, UniProt P25084)
Chain of UniProt P25084 (whole entry, looked up): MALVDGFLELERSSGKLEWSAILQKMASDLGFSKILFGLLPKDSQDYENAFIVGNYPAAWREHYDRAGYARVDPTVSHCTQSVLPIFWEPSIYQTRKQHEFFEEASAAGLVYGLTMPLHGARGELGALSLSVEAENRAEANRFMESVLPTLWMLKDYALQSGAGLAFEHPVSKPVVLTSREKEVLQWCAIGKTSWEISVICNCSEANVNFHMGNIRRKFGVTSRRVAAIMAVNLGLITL
sdiA: Regulatory protein SdiA (sdiA, Escherichia coli, UniProt P07026)
Chain of UniProt P07026 (whole entry, looked up): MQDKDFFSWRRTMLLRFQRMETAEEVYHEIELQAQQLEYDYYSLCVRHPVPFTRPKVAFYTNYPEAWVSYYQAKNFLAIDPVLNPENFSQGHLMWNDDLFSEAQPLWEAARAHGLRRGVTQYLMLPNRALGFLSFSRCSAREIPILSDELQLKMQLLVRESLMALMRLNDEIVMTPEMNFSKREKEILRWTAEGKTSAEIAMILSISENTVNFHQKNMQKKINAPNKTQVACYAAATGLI
Histidine kinase AgrC: Histidine kinase AgrC (Listeria monocytogenes, UniProt A8E0G3)
Chain of UniProt P21554 (whole entry, looked up): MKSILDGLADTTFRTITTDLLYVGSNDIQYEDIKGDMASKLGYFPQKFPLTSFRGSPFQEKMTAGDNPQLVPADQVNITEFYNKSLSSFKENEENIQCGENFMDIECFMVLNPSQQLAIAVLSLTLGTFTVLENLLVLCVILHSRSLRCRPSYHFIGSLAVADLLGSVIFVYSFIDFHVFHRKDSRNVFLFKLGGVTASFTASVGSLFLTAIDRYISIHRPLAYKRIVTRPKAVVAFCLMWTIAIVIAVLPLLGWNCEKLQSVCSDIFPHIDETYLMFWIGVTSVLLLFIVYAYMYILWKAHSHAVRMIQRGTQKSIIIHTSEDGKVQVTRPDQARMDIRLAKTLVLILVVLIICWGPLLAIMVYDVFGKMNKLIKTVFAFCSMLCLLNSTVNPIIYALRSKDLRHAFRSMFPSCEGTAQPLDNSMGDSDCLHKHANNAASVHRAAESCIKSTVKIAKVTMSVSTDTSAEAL
Chain of UniProt Q96SB4 (whole entry, looked up): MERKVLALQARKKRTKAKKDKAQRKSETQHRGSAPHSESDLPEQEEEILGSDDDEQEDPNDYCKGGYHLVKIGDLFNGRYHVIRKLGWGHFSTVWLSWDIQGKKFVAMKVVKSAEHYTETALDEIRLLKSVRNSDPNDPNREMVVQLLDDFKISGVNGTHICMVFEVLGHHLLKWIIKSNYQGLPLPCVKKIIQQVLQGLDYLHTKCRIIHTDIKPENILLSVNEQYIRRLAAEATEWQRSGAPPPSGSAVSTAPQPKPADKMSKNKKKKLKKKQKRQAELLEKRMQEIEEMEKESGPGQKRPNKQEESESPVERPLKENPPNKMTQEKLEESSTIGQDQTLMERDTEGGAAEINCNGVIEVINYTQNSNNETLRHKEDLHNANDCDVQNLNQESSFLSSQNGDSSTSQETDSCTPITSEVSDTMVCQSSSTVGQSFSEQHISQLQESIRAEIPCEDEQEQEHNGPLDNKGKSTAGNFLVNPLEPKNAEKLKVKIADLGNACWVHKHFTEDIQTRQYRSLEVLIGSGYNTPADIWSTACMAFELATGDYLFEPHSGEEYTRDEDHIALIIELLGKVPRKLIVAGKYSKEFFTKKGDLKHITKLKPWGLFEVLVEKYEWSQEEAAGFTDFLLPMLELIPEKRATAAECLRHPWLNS
Chain of UniProt P30874 (whole entry, looked up): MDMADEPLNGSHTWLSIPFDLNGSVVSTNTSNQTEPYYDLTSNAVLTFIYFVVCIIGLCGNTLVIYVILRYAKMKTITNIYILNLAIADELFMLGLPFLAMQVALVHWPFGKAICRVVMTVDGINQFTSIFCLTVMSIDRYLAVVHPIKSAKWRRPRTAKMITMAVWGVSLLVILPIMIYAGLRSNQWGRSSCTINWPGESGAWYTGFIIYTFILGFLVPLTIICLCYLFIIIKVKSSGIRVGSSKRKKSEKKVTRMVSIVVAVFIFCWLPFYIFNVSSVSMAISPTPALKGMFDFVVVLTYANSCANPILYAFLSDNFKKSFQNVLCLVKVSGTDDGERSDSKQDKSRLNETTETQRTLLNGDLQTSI
Chain of UniProt P28566 (whole entry, looked up): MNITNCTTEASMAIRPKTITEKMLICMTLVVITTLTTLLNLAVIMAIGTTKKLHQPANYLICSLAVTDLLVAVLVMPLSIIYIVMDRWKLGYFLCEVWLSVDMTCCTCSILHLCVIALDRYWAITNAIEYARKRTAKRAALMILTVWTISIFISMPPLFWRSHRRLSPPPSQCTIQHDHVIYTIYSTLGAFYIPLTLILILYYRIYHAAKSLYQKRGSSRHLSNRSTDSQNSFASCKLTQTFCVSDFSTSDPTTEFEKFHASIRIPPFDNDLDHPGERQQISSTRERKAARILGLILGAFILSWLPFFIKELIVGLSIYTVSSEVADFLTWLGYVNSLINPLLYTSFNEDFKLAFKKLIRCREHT
Chain of UniProt P41143 (whole entry, unmodified, looked up): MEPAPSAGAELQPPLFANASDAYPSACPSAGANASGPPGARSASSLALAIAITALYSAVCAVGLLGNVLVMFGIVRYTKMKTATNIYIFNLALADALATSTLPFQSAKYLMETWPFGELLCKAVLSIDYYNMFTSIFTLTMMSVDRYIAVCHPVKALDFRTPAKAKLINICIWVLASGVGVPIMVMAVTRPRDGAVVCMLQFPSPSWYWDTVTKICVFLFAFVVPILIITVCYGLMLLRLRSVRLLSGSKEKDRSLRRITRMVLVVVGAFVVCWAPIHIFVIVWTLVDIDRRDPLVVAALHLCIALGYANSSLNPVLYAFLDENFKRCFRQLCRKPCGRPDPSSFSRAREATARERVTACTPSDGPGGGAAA
Chain of UniProt Q9Y243 (whole entry, looked up): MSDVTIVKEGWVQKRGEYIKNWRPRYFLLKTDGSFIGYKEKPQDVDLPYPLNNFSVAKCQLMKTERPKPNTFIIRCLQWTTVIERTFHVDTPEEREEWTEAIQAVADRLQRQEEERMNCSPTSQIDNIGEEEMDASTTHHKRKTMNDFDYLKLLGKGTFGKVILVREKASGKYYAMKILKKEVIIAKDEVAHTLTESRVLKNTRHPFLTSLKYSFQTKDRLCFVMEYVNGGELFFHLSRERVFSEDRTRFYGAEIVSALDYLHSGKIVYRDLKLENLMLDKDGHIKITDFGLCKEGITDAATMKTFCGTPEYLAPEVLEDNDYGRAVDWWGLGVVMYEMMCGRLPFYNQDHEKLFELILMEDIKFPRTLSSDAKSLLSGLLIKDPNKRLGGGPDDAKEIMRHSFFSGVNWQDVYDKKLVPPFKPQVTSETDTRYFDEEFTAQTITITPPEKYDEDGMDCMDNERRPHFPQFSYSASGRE
Chain of UniProt O55040 (whole entry, looked up): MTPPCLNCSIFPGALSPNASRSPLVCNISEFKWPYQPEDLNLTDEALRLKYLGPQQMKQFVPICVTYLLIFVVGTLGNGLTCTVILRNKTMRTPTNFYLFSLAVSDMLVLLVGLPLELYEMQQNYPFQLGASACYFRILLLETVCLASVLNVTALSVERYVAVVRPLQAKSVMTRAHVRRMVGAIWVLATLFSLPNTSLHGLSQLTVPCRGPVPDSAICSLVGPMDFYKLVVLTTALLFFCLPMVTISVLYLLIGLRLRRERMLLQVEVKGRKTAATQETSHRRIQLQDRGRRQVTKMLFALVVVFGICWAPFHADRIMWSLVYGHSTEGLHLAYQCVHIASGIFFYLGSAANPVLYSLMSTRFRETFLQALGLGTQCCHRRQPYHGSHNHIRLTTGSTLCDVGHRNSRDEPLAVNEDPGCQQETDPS
Chain of UniProt P43219 (whole entry, looked up): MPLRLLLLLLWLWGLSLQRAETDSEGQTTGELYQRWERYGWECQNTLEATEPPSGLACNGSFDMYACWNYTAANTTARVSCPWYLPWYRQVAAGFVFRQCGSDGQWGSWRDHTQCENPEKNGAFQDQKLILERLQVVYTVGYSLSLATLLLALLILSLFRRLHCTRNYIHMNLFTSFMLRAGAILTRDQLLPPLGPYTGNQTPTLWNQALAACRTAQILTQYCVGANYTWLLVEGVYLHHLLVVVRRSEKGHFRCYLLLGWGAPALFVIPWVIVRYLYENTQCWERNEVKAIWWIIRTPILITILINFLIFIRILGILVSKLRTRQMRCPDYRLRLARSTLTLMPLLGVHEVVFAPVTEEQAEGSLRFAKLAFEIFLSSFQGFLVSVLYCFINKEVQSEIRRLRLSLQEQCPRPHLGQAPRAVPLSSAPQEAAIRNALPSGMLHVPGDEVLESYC
Chain of UniProt P35372 (whole entry, looked up): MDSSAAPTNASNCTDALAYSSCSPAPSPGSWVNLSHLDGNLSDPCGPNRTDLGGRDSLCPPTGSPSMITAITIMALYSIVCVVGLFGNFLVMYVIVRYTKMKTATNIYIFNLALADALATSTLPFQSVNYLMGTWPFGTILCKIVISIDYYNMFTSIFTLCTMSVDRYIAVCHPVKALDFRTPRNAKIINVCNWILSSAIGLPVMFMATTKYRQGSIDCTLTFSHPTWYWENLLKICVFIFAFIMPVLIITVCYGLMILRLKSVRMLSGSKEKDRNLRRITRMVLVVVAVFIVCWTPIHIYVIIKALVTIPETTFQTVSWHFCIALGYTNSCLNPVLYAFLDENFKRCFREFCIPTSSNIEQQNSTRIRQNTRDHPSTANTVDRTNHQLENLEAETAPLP
Chain of UniProt P37288 (whole entry, looked up): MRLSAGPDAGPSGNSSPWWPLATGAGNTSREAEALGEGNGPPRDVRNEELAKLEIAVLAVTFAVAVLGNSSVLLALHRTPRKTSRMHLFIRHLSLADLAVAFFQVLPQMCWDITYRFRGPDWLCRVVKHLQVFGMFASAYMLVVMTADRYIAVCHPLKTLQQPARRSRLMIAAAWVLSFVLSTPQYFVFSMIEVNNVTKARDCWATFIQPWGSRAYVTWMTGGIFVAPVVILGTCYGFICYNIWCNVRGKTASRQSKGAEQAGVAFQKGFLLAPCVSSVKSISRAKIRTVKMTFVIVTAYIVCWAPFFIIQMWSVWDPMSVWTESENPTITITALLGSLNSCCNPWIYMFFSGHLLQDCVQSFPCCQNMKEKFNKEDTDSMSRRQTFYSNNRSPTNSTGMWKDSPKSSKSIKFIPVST

| SMILES | tested on | test | test system | conditions | how to read | quantity | value |
| --- | --- | --- | --- | --- | --- | --- | --- |
| CCCCCCCCCC(=O)CC(=O)Nc1ccccc1O | lasR | reporter gene, agonist | ΔmexAB-oprM pump mutant |  |  | EC50 | 15000 nM |
| CCCCCCCCCC(=O)NC1CCSC1=O (stereo not shown) | sdiA |  |  |  |  | EC50 | 11.4 nM |
| CSCC[C@@H]1NC(=O)[C@H](Cc2ccccc2)NC(=O)[C@@H](NC(=O)[C@@H](N)CCCCN)CSC(=O)[C@H](C(C)C)NC(=O)[C@H](Cc2ccccc2)NC1=O | Histidine kinase AgrC |  |  |  |  | EC50 | 22.9 nM |
| O=C(Cc1cccc(Cl)c1)N[C@H]1CCOC1=O | sdiA |  |  |  |  | EC50 | 1.19 nM |
| CCCC[C@H](NC(=O)[C@H](CC(C)C)NC(=O)[C@H](CCC(N)=O)NC(=O)[C@@H](NC(=O)[C@H](CCC(=O)O)NC(=O)C(C)(C)NC(=O)[C@@H](NC(=O)C1(N)CCCC1)C(C)C)[C@@H](C)CC)C(=O)N[C@@H](Cc1c[nH]cn1)C(=O)N[C@@H](CCC(N)=O)C(=O)N[C@@H](CCCCNC(=O)[C@H](CCCNC(=N)N)NC(=O)CCCCCCCCCCCCCCCCC(=O)O)C(N)=O | Parathyroid hormone/parathyroid hormone-related peptide receptor (PTH1R, Homo sapiens, UniProt Q03431) | cAMP, agonist, GloSensor | GP-2.3 | 20 min |  | EC50 | 8.32 nM |
| CS(C)(=O)=Nc1ccc(-c2ccc(-c3nc4cc(O[C@@H]5CO[C@H]6[C@@H]5OC[C@H]6O)[nH]c4cc3F)cc2)cc1 | Serine/threonine-protein kinase BRSK1 (BRSK1, Homo sapiens, UniProt Q8TDC3) | enzyme activity, inhibitor |  | 10 µM |  | inhibition | -12% |
| CN(C)[C@H](CNC(=O)/C=C/c1cccc2ccccc12)Cc1ccc(O)cc1 | Mu-type opioid receptor, with Gi1 (OPRM1, Homo sapiens, UniProt P35372) | receptor activation, agonist |  |  |  | EC50 | 14 ± 1 nM |
| O=C(NCc1cc(Br)cc(Br)c1OC(=O)c1ccccc1[N+](=O)[O-])c1ccccc1Cl | lasR | reporter gene, agonist | ΔmexAB-oprM pump mutant |  |  | EC50 | 36 nM |
| Cc1cc(O)cc(C)c1C[C@H](N)C(=O)N[C@H](CCCNC(=N)N)C(=O)N[C@@H](Cc1ccccc1)C(=O)N(C)CC(=O)N(C)Cc1cc(C(F)(F)F)cc(C(F)(F)F)c1 | Delta-type opioid receptor (OPRD1, Homo sapiens, UniProt P41143, W284A) | agonist |  |  |  | EC50 | 0.69 ± 0.36 nM |
| N=C(N)NCCC[C@@H]1NC(=O)[C@H](CCCCNC(=O)CCC(NC(=S)Nc2ccc(CC3CN(CC(=O)O)CCN(CC(=O)O)CCN(CC(=O)O)CCN3CC(=O)O)cc2)C(=O)NCCCC[C@@H]2NC(=O)[C@@H](Cc3ccc(O)cc3)NC(=O)[C@H](CC(=O)O)NC(=O)CNC(=O)[C@H](CCCNC(=N)N)NC2=O)NC(=O)[C@@H](Cc2ccc(O)cc2)NC(=O)[C@H](CC(=O)O)NC(=O)CNC1=O (stereo partly shown) [scandium-44 labelled] |  | ex vivo γ-counting | female athymic nude mice, U-87 MG xenograft, muscle | intravenous, 4 h |  | tissue uptake | 0.15 ± 0.09 %ID/g |
| Cc1cc(C(=O)Nc2nc3cccc(C)c3n2[C@H]2CCCCN(C(=O)/C=C/CN(C)C)C2)ccn1 | Trypanosoma brucei brucei |  | 2T1 CLK1 overexpressing | 0.1563 µM, compound pretreated | baseline: maximum | survival | 197% and 206% and 213% and 208% |
| CC(C)[C@H](NC(=O)[C@@H]1CSSC(C)(C)[C@H](NC(=O)[C@@H](N)CC(=O)O)C(=O)N[C@@H](Cc2ccccc2)C(=O)N[C@@H](Cc2c[nH]c3ccccc23)C(=O)N[C@@H](CCCCN)C(=O)N[C@@H](Cc2ccc(O)cc2)C(=O)N1)C(=O)O | Urotensin-2 receptor (UTS2R, Homo sapiens, UniProt Q9UKP6, Y100A) | IP1 accumulation, agonist, HTRF | HEK293T | 1 h, 37 °C, Y100A mutant, 2.53 |  | EC50 | 2 nM |
| CSCC[C@@H]1NC(=O)[C@H](Cc2ccccc2)NC(=O)[C@@H](NC(=O)[C@H](C)N)CSC(=O)[C@@H](C(C)C)NC(=O)[C@H](Cc2ccccc2)NC1=O | Histidine kinase AgrC |  |  |  |  | EC50 | 883 nM |
| O=C(Cc1ccccc1F)N[C@H]1CCOC1=O | sdiA |  |  |  |  | EC50 | 4.18 nM |
| O=C1NC2(CC2)COc2ncc(F)cc2[C@H]2COCCN2c2ccn3ncc1c3n2 |  |  | Sprague-Dawley rat, male, serum | oral, 10 mg/kg/day, 4 weeks daily, end of recovery period |  | total cholesterol | 1.28 ± 0.4 mmol/L |
| COc1ccccc1-c1n[nH]c2nc(N[C@H]3CC[C@H](NS(=O)(=O)CC(C)C)CC3)ncc12 | CYCA LINJ.25.1530 | bead competition pull-down | Leishmania extract | 10 µM | baseline: vehicle | relative captured amount | 0.47 |
| CC(C)[C@H]1NC(=O)C[C@H]2/C=C/CCSSC[C@@H](NC1=O)C(=O)N[C@H](Cc1cccc3ccccc13)C(=O)NCC(=O)O2 | RAC-gamma serine/threonine-protein kinase (AKT3, Homo sapiens, UniProt Q9Y243) | enzyme activity, inhibitor |  | 10 µM |  | inhibition | -6% |
| CN1CCC(c2c[nH]c3ccc(O)cc23)CC1 | 5-hydroxytryptamine receptor 1E (HTR1E, Homo sapiens, UniProt P28566) | G protein activation, agonist, BRET |  |  |  | EC50 | 2.48 nM |
| COC(=O)[C@@H](NC(=O)c1nn(Cc2ccc(F)cc2)c2cc(OCCCCNC(=N)N)ccc12)C(C)(C)C | Cannabinoid receptor 1 (CNR1, Homo sapiens, UniProt P21554) | G-protein signalling, agonist, cAMP | HEK293T cells, transfected |  |  | EC50 | 2.17 nM |

| SMILES | tested on | test | test system | conditions | how to read | quantity | value |
| --- | --- | --- | --- | --- | --- | --- | --- |
| CC(C)[C@@H]1NC(=O)[C@H](Cc2ccccc2)NC(=O)[C@@H](C)NC(=O)[C@H](Cc2ccccc2)NC(=O)[C@@H](NC(=O)[C@H](C)N)CSC1=O | Histidine kinase AgrC |  |  |  |  | EC50 | 455 nM |
| CC(C)(C)C(=O)OCOP(=O)(OCOC(=O)C(C)(C)C)C1CCCN(O)C1=O (stereo not shown) | SN12C |  |  |  |  | log TGI | -4.85 log M |
| CN(C)[C@H]1C[C@@]23CC[C@@]4(O2)C(=CC[C@]2(C)[C@@H](c5ccc6ccncc6c5)CC[C@H]24)C=C3[C@@H](O)[C@@H]1O | SRSF protein kinase 1 (SRPK1, Homo sapiens, UniProt Q96SB4) | ATP probe labelling, inhibitor, KiNativ profiling |  | 0.1 µM |  | inhibition | -2.1% |
| CCCCCCC(=O)N[C@H]1CCSC1=O | sdiA |  |  |  |  | EC50 | 2.35 nM |
| CC[C@H](C)[C@H](NC(=O)[C@H](Cc1ccccc1)NC(=O)[C@H](CCC(=O)O)NC(=O)[C@H](CCCNC(=N)N)NC(=O)[C@@H](NC(=O)[C@H](C)NC(=O)[C@H](CCC(=O)O)NC(=O)[C@H](CCC(=O)O)NC(=O)[C@H](CCC(=O)O)NC(=O)[C@H](CC(C)C)NC(=O)[C@H](Cc1ccc(O)cc1)NC(=O)[C@H](CCCCN)NC(=O)[C@H](CO)NC(=O)[C@H](CC(C)C)NC(=O)[C@H](CC(=O)O)NC(=O)[C@H](CO)NC(=O)[C@@H](NC(=O)[C@H](Cc1ccccc1)NC(=O)[C@@H](NC(=O)CNC(=O)[C@H](CCC(N)=O)NC(=O)[C@@H](CO)NC(=O)[C@@H](N)Cc1c[nH]cn1)[C@@H](C)O)[C@@H](C)O)C(C)C)C(=O)N[C@@H](C)C(=O)N[C@@H](Cc1c[nH]c2ccccc12)C(=O)N[C@@H](CC(C)C)C(=O)N[C@@H](CCCCN)C(=O)N[C@@H](CC(N)=O)C(=O)NCC(=O)NCC(=O)N1CCC[C@H]1C(=O)N[C@@H](CO)C(=O)N[C@@H](Cc1ccc(O)cc1)C(=O)N[C@@H](CO)C(=O)N[C@@H](CCSC)C(=O)N[C@@H](CCC(=O)O)C(=O)N[C@@H](Cc1c[nH]cn1)C(=O)N[C@@H](Cc1ccccc1)C(=O)N[C@@H](CCCNC(=N)N)C(=O)N[C@@H](Cc1c[nH]c2ccccc12)C(=O)NCC(=O)N[C@@H](CCCCN)C(=O)N1CCC[C@H]1C(=O)N[C@H](C(N)=O)C(C)C | Gastric inhibitory polypeptide receptor (Rattus norvegicus, UniProt P43219) | cAMP, agonist, FRET |  |  |  | EC50 | 319 nM |
| O=C1NC(=O)c2c1c1cc(F)c[n+]3c1c1c2c2cc(O)ccc2[n]1[Ru-4]312([N]=C=S)[S+]3CC[S+]1CC[S+]2CC3 (stereo not shown) | SRSF protein kinase 3 (SRPK3, Homo sapiens, UniProt Q9UPE1) | enzyme activity |  | 100 nM, human enzyme, together with: 10 µM ATP | baseline: untreated | remaining activity | 68% |
| CC(C)C[C@H](N)C(=O)N[C@@H](Cc1ccccc1)C(=O)N[C@H]1CSSC[C@@H](C(=O)N[C@@H](Cc2c[nH]c3ccccc23)C(=O)O)NC(=O)[C@H](CO)NC(=O)[C@H](CCCCN)NC(=O)[C@@H](Cc2c[nH]c3ccccc23)NC(=O)[C@H](Cc2ccccc2)NC1=O | Somatostatin receptor type 2 (SSTR2, Homo sapiens, UniProt P30874) | β-arrestin recruitment, agonist |  |  |  | EC50 | 2.58 nM |
| CCCCCC(=O)CC(=O)NC1CCSC1=O (stereo not shown) | sdiA |  |  |  |  | EC50 | 4.78 nM |
| CSCC[C@@H]1NC(=O)[C@H](Cc2ccccc2)NC(=O)[C@@H](NC(=O)[C@@H](N)C(C)C)CSC(=O)[C@H](C(C)C)NC(=O)[C@H](Cc2ccccc2)NC1=O | Histidine kinase AgrC |  |  |  |  | EC50 | 7.67 nM |
| N#Cc1cccc(CC(=O)N[C@H]2CCOC2=O)c1 | sdiA |  |  |  |  | EC50 | 2.43 nM |
| COc1ccccc1-c1n[nH]c2nc(NC3CCN(C(=O)Cc4ccc(F)cc4F)CC3)ncc12 | Leishmania donovani LINJ.36.6910 | bead binding competition | Leishmania donovani extract | 10 µM | baseline: vehicle | relative abundance | 0.84 |
| Cc1nc2cccc(OCC(C)(C)C(=O)NC(C)C)c2c(N)c1C(=O)[O-].[Na+] | Salmonella typhimurium |  | TA100 | 0.32 mg per plate, with S9, preincubation |  | revertant colonies per plate | 120 ± 6 |
| O=C(Cc1ccc(Br)cc1)N[C@@H]1CCOC1=O | sdiA |  |  |  |  | EC50 | 631 nM |
| CCCCCCCCCCCCCCCCCC(=O)NC[C@H]1CC[C@H](C(=O)N[C@@H](CCC(=O)NCCCOCCOCCOCCCNC(=O)COCC(=O)N[C@@H](Cc2ccc(O)cc2)C(=O)NC(C)(Cc2ccccc2)C(=O)N[C@@H](CC(C)C)C(=O)N[C@@H](CCCC)C(=O)N[C@@H](CCCNC(=N)N)C(=O)N2CCC[C@H]2C(=O)N[C@@H](CCCNC(=N)NC)C(=O)N[C@@H](CC(N)=O)C(N)=O)C(=O)O)CC1 (stereo partly shown) | Neuromedin-U receptor 1 (Mus musculus, UniProt O55040) | β-arrestin recruitment, agonist |  |  |  | EC50 | > 10000 nM |
| CSCC[C@H](NC(=O)[C@@H]1CCCN1C(=O)CNC(=O)[C@H](CCCCN)NC(=O)[C@H](Cc1cnc[nH]1)NC(=O)[C@H](CO)NC(=O)[C@H](CC(C)C)NC(=O)[C@H](CCCNC(=N)N)NC(=O)[C@@H]1CCCN1C(=O)[C@H](CCCNC(=N)N)NC(=O)[C@@H]1CCC(=O)N1)C(=O)N1CCC[C@H]1C(=O)N[C@@H](Cc1ccccc1)C(=O)O | Apelin receptor (Canis lupus familiaris, UniProt A0A8C0JGC4) | cAMP inhibition, agonist | HEK293 | dog receptor |  | EC50 | 0.06 ± 0.03 nM |
| CC[C@H](C)[C@H](NC(=O)[C@H](CO)NC(=O)[C@H](Cc1ccc(O)cc1)NC(=O)[C@H](Cc1ccc(O)cc1)NC(=O)[C@H](CC(N)=O)NC(=O)CNC(=O)[C@H](CO)NC(=O)[C@H](Cc1ccc(O)cc1)NC(=O)[C@H](CO)NC(=O)[C@H](CO)NC(=O)[C@H](CC(N)=O)NC(=O)COCCOCCNC(=O)CN1CCN(CC(=O)O)CCN(CC(=O)O)CCN(CC(=O)O)CC1)C(=O)N[C@@H](CC(C)C)C(N)=O [copper-64 labelled] |  | dynamic PET | KPC mouse, pancreatic cancer model, blood | intravenous, 0.4 min, 49 days after tamoxifen |  | tumour uptake | 44.7 %ID/mL |
| O=C(Cc1ccccc1Cl)N[C@H]1CCOC1=O | sdiA |  |  |  |  | EC50 | 17.2 nM |
| CC[C@H](C)[C@@H]1NC(=O)[C@H](Cc2ccc(O)cc2)NC(=O)[C@@H](N)CSSC[C@@H](C(=O)N2CCC[C@H]2C(=O)N[C@@H](CC(C)C)C(=O)NCC(N)=O)NC(=O)[C@H](CC(N)=O)NC(=O)[C@H](CCC(N)=O)NC(=O)[C@H]([C@@H](C)CC)NC(=O)[C@H](Cc2ccc(O)cc2)NC(=O)[C@@H](N)CSSC[C@@H](C(=O)N2CCC[C@H]2C(=O)N[C@@H](CC(C)C)C(=O)NCC(N)=O)NC(=O)[C@H](CC(N)=O)NC(=O)[C@H](CCC(N)=O)NC1=O | Vasopressin V1a receptor (AVPR1A, Homo sapiens, UniProt P37288) | calcium signal, agonist, fluorescence |  |  |  | EC50 | > 10000 nM |
